Experimental data collected from several papers.
Compare with care: the assays were run in different laboratories. Several values in a cell are separate wells, animals, samples, runs or records. Numbers after ± are the reported error.
UCHL1: Ubiquitin carboxyl-terminal hydrolase isozyme L1 (UCHL1, Homo sapiens, UniProt P09936)
Chain of UniProt P09936 (whole entry, looked up): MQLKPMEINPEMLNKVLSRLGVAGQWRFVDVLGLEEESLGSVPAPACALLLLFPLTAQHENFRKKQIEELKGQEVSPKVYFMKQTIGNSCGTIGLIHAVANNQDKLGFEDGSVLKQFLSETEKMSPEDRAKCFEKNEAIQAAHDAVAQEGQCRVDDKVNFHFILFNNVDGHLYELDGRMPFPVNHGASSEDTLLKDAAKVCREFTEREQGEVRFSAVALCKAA
EPHA7: Ephrin type-A receptor 7 (EPHA7, Homo sapiens, UniProt Q15375)
Chain of UniProt Q15375 (whole entry, looked up): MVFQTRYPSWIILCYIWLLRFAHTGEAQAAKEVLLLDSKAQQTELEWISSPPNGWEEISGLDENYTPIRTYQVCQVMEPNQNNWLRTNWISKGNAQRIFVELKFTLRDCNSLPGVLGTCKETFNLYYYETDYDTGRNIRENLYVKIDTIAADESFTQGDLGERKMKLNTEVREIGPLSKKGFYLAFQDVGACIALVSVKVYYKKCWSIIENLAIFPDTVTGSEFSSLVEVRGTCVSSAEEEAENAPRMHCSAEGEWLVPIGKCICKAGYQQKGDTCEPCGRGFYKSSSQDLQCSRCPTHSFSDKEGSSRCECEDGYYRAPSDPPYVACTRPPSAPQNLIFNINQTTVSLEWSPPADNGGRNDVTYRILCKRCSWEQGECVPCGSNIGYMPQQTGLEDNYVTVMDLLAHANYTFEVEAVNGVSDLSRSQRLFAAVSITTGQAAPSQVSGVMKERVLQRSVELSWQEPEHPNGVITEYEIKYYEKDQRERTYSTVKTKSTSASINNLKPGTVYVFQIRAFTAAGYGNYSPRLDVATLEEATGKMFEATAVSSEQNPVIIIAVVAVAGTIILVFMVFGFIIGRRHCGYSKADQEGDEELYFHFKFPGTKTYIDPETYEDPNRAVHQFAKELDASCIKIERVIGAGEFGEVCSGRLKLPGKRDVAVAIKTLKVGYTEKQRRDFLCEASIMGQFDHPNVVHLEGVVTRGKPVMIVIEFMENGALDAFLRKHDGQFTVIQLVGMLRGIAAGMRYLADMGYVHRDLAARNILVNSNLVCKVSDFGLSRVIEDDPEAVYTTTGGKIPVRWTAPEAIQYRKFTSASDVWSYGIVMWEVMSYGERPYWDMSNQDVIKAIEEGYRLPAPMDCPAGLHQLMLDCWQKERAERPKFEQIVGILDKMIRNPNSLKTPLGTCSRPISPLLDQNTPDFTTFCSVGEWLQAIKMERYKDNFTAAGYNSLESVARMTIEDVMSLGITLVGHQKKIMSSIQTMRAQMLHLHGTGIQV
BEST1: BEST1 (Homo sapiens, UniProt O76090)
Chain of UniProt O76090 (whole entry, looked up): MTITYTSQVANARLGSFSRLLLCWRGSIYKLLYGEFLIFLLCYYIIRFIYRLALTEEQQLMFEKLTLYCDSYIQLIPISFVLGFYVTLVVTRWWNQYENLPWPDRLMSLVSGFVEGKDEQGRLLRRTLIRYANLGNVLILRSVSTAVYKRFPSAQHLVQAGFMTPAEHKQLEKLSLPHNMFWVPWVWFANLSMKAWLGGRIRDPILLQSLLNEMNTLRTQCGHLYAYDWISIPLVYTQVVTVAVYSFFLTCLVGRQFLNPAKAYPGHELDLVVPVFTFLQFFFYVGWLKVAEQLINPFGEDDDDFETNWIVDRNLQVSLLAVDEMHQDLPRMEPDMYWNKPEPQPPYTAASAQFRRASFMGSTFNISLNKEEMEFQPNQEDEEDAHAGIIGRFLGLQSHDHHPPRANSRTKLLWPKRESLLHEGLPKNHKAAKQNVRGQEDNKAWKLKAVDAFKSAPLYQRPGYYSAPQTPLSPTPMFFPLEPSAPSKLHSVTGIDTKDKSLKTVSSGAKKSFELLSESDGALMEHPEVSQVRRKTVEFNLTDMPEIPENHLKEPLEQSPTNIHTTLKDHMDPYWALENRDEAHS
TOP2B: DNA topoisomerase 2-beta (TOP2B, Homo sapiens, UniProt Q02880)
Chain of UniProt Q02880 (whole entry, looked up): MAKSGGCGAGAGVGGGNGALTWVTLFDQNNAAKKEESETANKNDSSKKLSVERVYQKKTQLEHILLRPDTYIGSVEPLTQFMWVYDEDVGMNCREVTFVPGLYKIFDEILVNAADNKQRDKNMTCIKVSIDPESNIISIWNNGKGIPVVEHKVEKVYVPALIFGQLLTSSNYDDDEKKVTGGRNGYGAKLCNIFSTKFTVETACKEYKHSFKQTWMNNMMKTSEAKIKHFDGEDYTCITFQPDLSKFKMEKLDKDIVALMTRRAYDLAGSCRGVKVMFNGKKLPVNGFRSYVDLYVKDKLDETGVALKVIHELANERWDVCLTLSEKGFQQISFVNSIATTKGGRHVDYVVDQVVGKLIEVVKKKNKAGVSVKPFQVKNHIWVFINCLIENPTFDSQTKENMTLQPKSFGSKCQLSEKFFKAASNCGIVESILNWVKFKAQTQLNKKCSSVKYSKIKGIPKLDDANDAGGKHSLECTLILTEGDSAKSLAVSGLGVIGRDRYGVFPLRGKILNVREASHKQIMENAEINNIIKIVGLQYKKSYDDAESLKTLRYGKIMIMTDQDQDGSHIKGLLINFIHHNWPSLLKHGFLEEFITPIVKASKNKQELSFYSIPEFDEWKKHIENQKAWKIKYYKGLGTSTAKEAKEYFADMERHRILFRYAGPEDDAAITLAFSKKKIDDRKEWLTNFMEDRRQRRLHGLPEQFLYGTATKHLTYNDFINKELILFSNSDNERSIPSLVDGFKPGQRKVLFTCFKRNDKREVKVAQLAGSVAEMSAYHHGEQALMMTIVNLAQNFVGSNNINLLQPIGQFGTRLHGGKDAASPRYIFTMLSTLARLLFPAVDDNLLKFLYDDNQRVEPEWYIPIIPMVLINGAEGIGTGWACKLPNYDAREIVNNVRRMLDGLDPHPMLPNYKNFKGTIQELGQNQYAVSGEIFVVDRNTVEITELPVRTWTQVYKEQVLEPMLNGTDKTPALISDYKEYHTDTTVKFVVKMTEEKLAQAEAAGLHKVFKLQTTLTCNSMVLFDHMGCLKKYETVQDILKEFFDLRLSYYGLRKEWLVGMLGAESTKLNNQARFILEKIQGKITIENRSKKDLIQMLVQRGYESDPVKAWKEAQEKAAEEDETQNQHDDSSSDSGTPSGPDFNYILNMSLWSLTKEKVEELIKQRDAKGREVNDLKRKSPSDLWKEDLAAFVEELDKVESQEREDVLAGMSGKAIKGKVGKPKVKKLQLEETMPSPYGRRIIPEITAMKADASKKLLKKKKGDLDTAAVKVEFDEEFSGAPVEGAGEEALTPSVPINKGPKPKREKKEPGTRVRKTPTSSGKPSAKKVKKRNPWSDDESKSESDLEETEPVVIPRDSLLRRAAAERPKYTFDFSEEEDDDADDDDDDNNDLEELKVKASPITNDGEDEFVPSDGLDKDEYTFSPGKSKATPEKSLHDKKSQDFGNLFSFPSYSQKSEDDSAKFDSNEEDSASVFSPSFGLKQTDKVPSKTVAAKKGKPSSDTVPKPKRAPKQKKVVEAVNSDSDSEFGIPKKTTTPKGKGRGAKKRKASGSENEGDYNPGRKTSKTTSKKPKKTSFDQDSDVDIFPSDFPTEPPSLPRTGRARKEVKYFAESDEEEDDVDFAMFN
ADRA2C: Alpha-2C adrenergic receptor (ADRA2C, Homo sapiens, UniProt P18825)
Chain of UniProt P18825 (whole entry, looked up): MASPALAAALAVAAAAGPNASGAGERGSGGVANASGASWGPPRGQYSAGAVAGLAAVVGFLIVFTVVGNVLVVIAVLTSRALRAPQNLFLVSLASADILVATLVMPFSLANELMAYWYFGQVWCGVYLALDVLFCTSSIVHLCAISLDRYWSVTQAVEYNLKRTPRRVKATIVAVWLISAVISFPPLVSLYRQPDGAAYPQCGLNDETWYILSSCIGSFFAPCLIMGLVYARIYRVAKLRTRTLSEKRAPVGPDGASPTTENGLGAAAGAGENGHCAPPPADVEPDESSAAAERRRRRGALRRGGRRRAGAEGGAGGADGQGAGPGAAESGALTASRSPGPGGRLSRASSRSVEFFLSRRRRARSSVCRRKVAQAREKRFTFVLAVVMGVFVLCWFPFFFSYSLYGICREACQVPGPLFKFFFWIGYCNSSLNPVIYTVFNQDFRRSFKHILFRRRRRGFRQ
STK38L: Serine/threonine-protein kinase 38-like (STK38L, Homo sapiens, UniProt Q9Y2H1)
Chain of UniProt Q9Y2H1 (whole entry, looked up): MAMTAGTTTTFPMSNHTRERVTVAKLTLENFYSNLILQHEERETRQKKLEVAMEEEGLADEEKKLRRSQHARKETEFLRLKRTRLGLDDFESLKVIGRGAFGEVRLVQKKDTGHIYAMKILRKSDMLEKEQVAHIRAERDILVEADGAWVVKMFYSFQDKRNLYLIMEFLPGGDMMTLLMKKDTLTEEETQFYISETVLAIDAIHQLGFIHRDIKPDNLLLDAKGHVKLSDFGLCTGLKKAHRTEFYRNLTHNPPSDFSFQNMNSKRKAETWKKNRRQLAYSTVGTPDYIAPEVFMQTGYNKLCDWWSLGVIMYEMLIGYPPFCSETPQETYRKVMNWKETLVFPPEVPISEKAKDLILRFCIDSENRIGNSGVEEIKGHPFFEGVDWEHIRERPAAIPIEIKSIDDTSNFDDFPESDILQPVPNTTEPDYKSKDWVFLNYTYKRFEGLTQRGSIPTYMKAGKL
T1: RNA aptamer U10C/A45G, 5'-triphosphate, 2',3'-cyclic phosphate; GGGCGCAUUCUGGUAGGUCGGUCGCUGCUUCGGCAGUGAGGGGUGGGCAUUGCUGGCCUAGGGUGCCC
Chain of UniProt P51575 (whole entry, unmodified, looked up): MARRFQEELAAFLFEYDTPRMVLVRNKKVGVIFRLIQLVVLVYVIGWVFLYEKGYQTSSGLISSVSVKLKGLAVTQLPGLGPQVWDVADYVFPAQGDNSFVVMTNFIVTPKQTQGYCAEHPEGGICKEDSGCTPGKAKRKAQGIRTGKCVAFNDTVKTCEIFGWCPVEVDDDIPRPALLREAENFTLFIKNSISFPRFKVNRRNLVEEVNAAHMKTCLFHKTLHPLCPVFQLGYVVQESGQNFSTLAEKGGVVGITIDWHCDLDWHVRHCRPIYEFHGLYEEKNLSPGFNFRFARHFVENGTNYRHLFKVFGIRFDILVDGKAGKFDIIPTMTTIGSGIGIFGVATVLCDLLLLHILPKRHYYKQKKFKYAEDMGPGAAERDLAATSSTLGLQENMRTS
Chain of UniProt Q16774 (whole entry, unmodified, looked up): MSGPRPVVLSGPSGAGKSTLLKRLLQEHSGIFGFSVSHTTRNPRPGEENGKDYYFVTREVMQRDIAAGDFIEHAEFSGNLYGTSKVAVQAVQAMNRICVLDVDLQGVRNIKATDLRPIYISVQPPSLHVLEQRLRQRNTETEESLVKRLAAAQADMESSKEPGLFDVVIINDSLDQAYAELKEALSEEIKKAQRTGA

Structure (SMILES)	target or system	assay	test system	conditions	scale	measurement	value
NCCCC(=O)O	SLC6A6 (Homo sapiens, UniProt P31641, L306A)	binding, microscale thermophoresis	–	977 nM, room temperature, together with: 50 nM labelled protein	higher = more binding	normalised MST signal	0.128
CC(CC(=O)NC(CC(=O)O)c1cc([N+](=O)[O-])ccc1Cl)c1ccccc1 (stereo not drawn)	UCHL1	covalent, intact protein LC-MS	–	12.5 µM	–	labelling	13.8%
Nc1ncnc2c1ncn2[C@@H]1O[C@H](COP(=O)(O)CP(=O)(O)OP(=O)(O)O)[C@@H](O)[C@H]1O	P2X purinoceptor 1 (P2RX1, Homo sapiens, UniProt P51575, S286A)	saturation binding	HEK293	13 nM	–	specific binding	3850 CCPM and 722 CCPM and 1440 CCPM
CC1=C[C@H](O)CC(C)(C)[C@H]1/C=C/C(C)=C/C=C/C(C)=C/C=C/C=C(C)/C=C/C=C(C)/C=C/C1=C(C)C[C@@H](O)CC1(C)C	Beta-lactoglobulin (LGB, Bos taurus, UniProt P02754)	fluorescence quenching	–	298 K	–	Stern-Volmer quenching constant	33000 ± 5000 L/mol
C#CCCC1(CC[C@H](NC(=O)NCCCCCCNC(=O)NCCNC(=O)COc2cccc([C@@H](CCc3ccc(OC)c(OC)c3)OC(=O)[C@@H]3CCCCN3C(=O)C(=O)C(C)(C)CC)c2)C(N)=O)N=N1.O=C(O)C(F)(F)F	FKBP1A (Homo sapiens, UniProt P62942)	photoaffinity labeling, in-gel fluorescence, refers to: Alexa Fluor 647 click label	–	10 µM, UV irradiation 365 nm	reference: probe over FKBP12 signal, higher = more labeling	normalized labeling ratio	5.21
Cc1cccc(C=C(C#N)C(=O)Nc2ccc(C(=O)O)cc2)c1	UCHL1	covalent, intact protein LC-MS	–	12.5 µM	–	labelling	33.8%
CC(C)(NS(=O)(=O)c1cccc(Cl)c1O)c1ccc2ccccc2c1	malate dehydrogenase	enzyme activity, inhibitor	–	200 µM, pH 7.0, 1% DMSO, aggregation counter-screen	–	remaining activity	81%
C=CC(=O)N1CCC[C@@H](n2nc(-c3ccc(Oc4ccccc4)cc3)c3c(N)ncnc32)C1	EPHA7	–	–	0.1 µM	–	remaining activity	92.3%
CCN1CCN(c2cc(N3CCN(CC)CC3)nc(NCCNc3ccnc4cc(Cl)ccc34)n2)CC1	THRA (Homo sapiens, UniProt P10827)	reporter gene, Gal4 hybrid reporter	–	20 µM	reference: vehicle	activation	1.4 ± 0.64 fold
O=C(O)c1ccc(O)cc1	BEST1	whole-cell patch clamp	HEK293 transiently expressing channel	concentration not given, membrane potential -20 mV	–	current density	-9.14 pA/pF and -5.91 pA/pF and -7.72 pA/pF and -6.69 pA/pF and -8.7 pA/pF and -5.33 pA/pF and -4.38 pA/pF
O=C(O)CC(O)(CC(=O)O)C(=O)O	uncharacterized protein (Pelagibacter ubique, UniProt Q4FLC8)	binding, competition isothermal titration calorimetry	Candidatus Pelagibacter ubique	together with: cis-aconitate 1 mM competitor, MgSO4 53 mM	–	Ka	1.44e+09 M⁻¹ and 1.43e+09 M⁻¹
CN(CC(=O)Nc1ccc(Cl)c(C(F)(F)F)c1)C(=O)CCl	UCHL1	covalent, intact protein LC-MS	–	12.5 µM	–	labelling	23.3%
CN(C)C(=O)C(CCN1CCC(O)(c2ccc(Cl)cc2)CC1)(c1ccccc1)c1ccccc1	Calcium-activated potassium channel subunit alpha-1, with LRRC26 γ1 subunit (KCNMA1, Homo sapiens, UniProt Q12791)	BK channel conductance, inside-out patch clamp	–	BKα/γ1, Vm 80 mV, nominally Ca2+-free	–	Hill coefficient	0.675 ± 0.064
OC[C@H]1OC(O)[C@H](O)[C@@H](O)[C@@H]1O (stereo partly drawn)	Hexokinase-3 (HK3, Homo sapiens, UniProt P52790, E254A/R267A)	substrate inhibition	–	mutant E254A/R267A, partial substrate inhibition model, together with: ATP 20 mM	–	kcat	60 ± 4 s⁻¹
O=c1nc(SCc2cc(F)cc(C(F)(F)F)c2)nc(SCc2ccc3nc(Cl)ccc3c2)[nH]1	TOP2B	decatenation	–	125 µM	–	mean decatenated DNA	0.71%
Nc1ncnc2c1ncn2[C@@H]1O[C@H](COP(=O)(O)OP(=O)(O)OP(=O)(O)O)[C@@H](O)[C@H]1O	PAK1 (Homo sapiens, UniProt Q13153)	substrate	–	–	–	Km	4.4 µM
[Cl-].[Na+]	GUK1 (Homo sapiens, UniProt Q16774)	enzyme activity, NADH-coupled	–	30 mM	–	reaction velocity	0.0301 µM/s and 0.0186 µM/s and 0.0202 µM/s
Oc1ccc(/C=C/c2cc(O)cc(O)c2)cc1	O-methyltransferase (Sorghum bicolor, UniProt A0A1B6PFV1)	ITC	–	together with: MET+	–	-TΔS	5.06 kcal/mol
[O-][S+]1CCCCS1 (stereo not drawn)	SOD1 (Homo sapiens, UniProt P00441, G94A)	LC-MS	brain homogenate	50 µM, 1 h, 37 °C	–	SOD1 dimer fraction	14.7%
c1coc(-c2n[nH]cc2-c2ccnc3ccccc23)c1	Histidine protein kinase NIK1 (NIK1, Candida albicans, UniProt Q5A599)	kinase binding, MIB/MS competition	Candida albicans lysate	10 µM	reference: DMSO, negative = stronger binding	log2 fold change	-0.12
CC(C)(C)c1ccc(S(=O)(=O)/C=C/C#N)cc1	Toxoplasma gondii	parasite growth, luciferase reporter	HFF, tachyzoite	72 h	–	EC90	37.6 µM
Nc1nc2c(ncn2[C@@H]2O[C@H](COP(=O)(O)O)[C@@H](O)[C@H]2O)c(=O)[nH]1	GUK1 (Homo sapiens, UniProt Q16774, D103A)	enzyme activity, NADH-coupled	–	2000 µM	–	reaction rate	17.4 s⁻¹ and 16.4 s⁻¹ and 15.6 s⁻¹
Cc1ccc(N2CCN(Cc3cccnc3Oc3ccc(-c4c(C)c(=O)[nH]c(=O)n4C)c(C)c3)CC2)cc1C	ADRA2C	binding, radioligand binding	–	together with: [3H]rauwolscine	reference: Ki alpha2B over Ki alpha2C	selectivity ratio	2
COc1cc(-c2cncc3c2CN(C)Cc2cc(N4CCNCC4)ccc2-3)cc(OC)c1OC	EPHA7	kinase activity	–	1 µM, human enzyme, together with: ATP 10 µM	reference: DMSO control	remaining activity	113%
O=[N+]([O-])c1ccc2c(c1)S(=O)(=O)C=C2	Toxoplasma gondii	parasite growth, luciferase reporter	HFF, tachyzoite	72 h	–	EC90	134 µM
Cc1cc(-c2ccnc3[nH]cc(F)c23)cc(F)c1[C@@]1(O)[C@H](C)CN(C2CCS(=O)(=O)CC2)C[C@@H]1C	STK38L	ATP probe binding, KiNativ, refers to: Lys2 site	HEK293T cell lysate	10 µM	–	inhibition	-1.8%

Structure (SMILES)	target or system	assay	test system	conditions	scale	measurement	value
CS(=O)(=O)c1nc2ccc(NS(=O)(=O)c3ccc(C#N)cc3)cc2s1	UCHL1	covalent, intact protein LC-MS	–	12.5 µM	–	labelling	9.42%
COc1ccc(S(=O)(=O)n2nc(SCc3ccc(Cl)cc3)nc2N)cc1	LYPLAL1 (Homo sapiens, UniProt Q5VWZ2)	enzyme activity, activator, gel-based ABPP	purified protein	concentration not given, together with: FP-rhodamine	reference: DMSO	probe labeling increase	2.2 fold
CC[C@@H]1[C@H](F)C(=O)N[C@@H]1COc1nccc2cc(C(N)=O)c(OC)cc12	STK38L	ATP-site probe binding, ActivX profiling	THP-1 cell lysate	0.01 mM, Lys1 site	–	inhibition	5.2%
O=C(O)c1ccc([N+](=O)[O-])cc1	BEST1	whole-cell patch clamp	HEK293 transiently expressing channel	concentration not given, membrane potential -20 mV	–	current density	-19.2 pA/pF and -19.6 pA/pF and -8.05 pA/pF and -15.1 pA/pF and -8.68 pA/pF and -14.5 pA/pF and -24.7 pA/pF
CC(=O)Nc1c(F)ccc(NS(=O)(=O)c2cccc(Cl)c2O)c1F	malate dehydrogenase	enzyme activity, inhibitor	–	200 µM, pH 7.0, 1% DMSO, aggregation counter-screen	–	remaining activity	83%
CCN1CCN(c2ccccc2NC(=O)c2cc(S(=O)(=O)N(CC)c3ccccc3)ccc2Cl)C1=O	N-myristoyltransferase (Cryptosporidium parvum, UniProt Q5CV46)	enzyme activity, inhibitor	–	–	reference: HsNMT1 IC50 over target IC50	selectivity ratio	> 40 fold and > 44 fold
CC[C@@H](C)[C@@H](NC(=O)[C@@H](Cc1ccc(O)cc1)NC(=O)[C@H]1CCCN1C(=O)[C@@H](CCCNC(=N)N)NC(=O)[C@H](N)Cc1c[nH]cn1)C(=O)N[C@H](C)C(=O)N[C@H](Cc1c[nH]cn1)C(=O)N[C@H](CCCNC(=N)N)C(=O)N[C@@H](C(=O)N[C@H](Cc1ccc(O)cc1)C(=O)N[C@H](CO)C(=O)N[C@H](Cc1ccccc1)C(N)=O)C(C)C	Transferrin receptor protein 1 (Tfrc, Mus musculus, UniProt Q62351)	flow cytometry	DC2.4	24 h, pH 6, replicate 1, unit not given	reference: 0 h	surface TFRC expression	0.922
C=CC(=O)N1CCC(COCC(=O)N2CCN(c3nc(-c4cnc(N)nc4C(F)F)nc(N4CCOC[C@@H]4C)n3)CC2)CC1	ULK2 (Homo sapiens, UniProt Q8IYT8)	KINOMEscan	–	1 µM	–	remaining binding	100%
COc1ccc(C2=NN(C(=O)CCl)C(c3ccc(F)cc3)C2)cc1 (stereo not drawn)	UCHL1	covalent, intact protein LC-MS	–	12.5 µM	–	labelling	11.3%
[2H]c1cc(C)c(NC(=O)c2cnc(Nc3cc(N4CCCCC4)nc(C)n3)s2)c(Cl)c1	PDGFRA (Homo sapiens, UniProt P16234, T674I)	–	–	0.01 µM	–	inhibition	< 30%
CC1CC1(C(=O)O)C(=O)NCc1cc(Cl)c2c(c1)OCCCO2 (stereo not drawn)	malate dehydrogenase	enzyme activity, inhibitor	–	200 µM, pH 7.0, 1% DMSO, aggregation counter-screen	–	remaining activity	88%
CC(Oc1ccccc1)C(=O)NCc1ccccn1 (stereo not drawn)	Leucine-rich repeat serine/threonine-protein kinase 2, WD40 domain (LRRK2, Homo sapiens, UniProt Q5S007)	binding, affinity selection mass spectrometry	–	–	reference: other proteins in batch	fold enrichment	2.06
Nc1nc2c(ncn2[C@@H]2O[C@H](COP(=O)(O)OP(=O)(O)OP(=O)(O)O)[C@@H](O)[C@H]2O)c(=O)[nH]1	T1, RNA aptamer U10C/A45G, 5'-triphosphate, 2',3'-cyclic phosphate	ITC	–	–	–	Kd	0.361 µM
Cc1oc(C)c(S(=O)(=O)NCC(F)(F)c2ccc(Br)cc2)c1C(=O)O	malate dehydrogenase	enzyme activity, inhibitor	–	200 µM, pH 7.0, 1% DMSO, aggregation counter-screen	–	remaining activity	105%
Cc1cc(Oc2ncccc2CN2CCN(c3ccccc3C(F)(F)F)CC2)ccc1-c1c(C)c(=O)[nH]c(=O)n1C	ADRA2C	binding, radioligand binding	–	together with: [3H]rauwolscine	reference: Ki alpha2B over Ki alpha2C	selectivity ratio	6
O=c1nc(SCc2cc(F)cc(C(F)(F)F)c2)nc(SCc2ccc3sccc3c2)[nH]1	TOP2B	decatenation	–	125 µM, replicate 2	–	decatenated DNA	0%
COc1ccc(C)cc1CN1CCC(c2cc3ncccc3cn2)CC1	Catenin beta-1, residues 141-305 (CTNNB1, Homo sapiens, UniProt P35222)	ITC	–	25 °C	–	ΔS	21.6 cal/mol/K
Clc1ccc2c(c1)c1ccccc1n2CC1CO1 (stereo not drawn)	UCHL1	covalent, intact protein LC-MS	–	12.5 µM	–	labelling	11.2%
CCCCCC/C=C\CCCCCCCCCC(=O)O	uncharacterized protein (Marinitoga piezophila, UniProt H2J7C1)	substrate, GC-FID	–	pH 6.0, 20 °C, 5% ethanol, 50 mM NaCl	–	Km	5 ± 0.8 µM
O=C(O)c1ccc(Nc2ncc3c(n2)-c2ccc(Cl)cc2C(c2c(F)cccc2F)=NC3)cc1	human IRAK4(h)	kinase activity	–	1 µM	–	remaining activity	97%
Cn1nnc2ccc(Cc3cccc(CO)c3)cc21	Bromodomain-containing protein 4, BD1 (BRD4, Homo sapiens, UniProt O60885)	BROMOscan binding	–	–	–	ligand efficiency	0.37
CCc1cc(SC#N)cc(CC)c1NC(=O)CCl	UCHL1	covalent, intact protein LC-MS	–	12.5 µM	–	labelling	7.89%
O=C(NC1CCC1)c1ccc2nc(-c3cccc(NS(=O)(=O)NCCN4CCCCC4)c3)cn2c1	CDK13 (Homo sapiens, UniProt Q14004)	enzyme activity	–	10 µM	–	remaining activity	100%
CN1C(=C(C#N)C(=O)CCl)Sc2ccccc21	UCHL1	covalent, intact protein LC-MS	–	12.5 µM	–	labelling	12.8%
Cc1nc(CSc2nc(SCc3ccc(C(C)C)cc3)nc(=O)[nH]2)cs1	TOP2B	decatenation	–	7.8 µM	–	mean decatenated DNA	96.8%

Repeated from above:
Structure (SMILES)	target or system	assay	test system	conditions	scale	measurement	value
CC1CC1(C(=O)O)C(=O)NCc1cc(Cl)c2c(c1)OCCCO2 (stereo not drawn)	malate dehydrogenase	enzyme activity, inhibitor	–	200 µM, pH 7.0, 1% DMSO, aggregation counter-screen	–	remaining activity	88%
CC(Oc1ccccc1)C(=O)NCc1ccccn1 (stereo not drawn)	Leucine-rich repeat serine/threonine-protein kinase 2, WD40 domain (LRRK2, Homo sapiens, UniProt Q5S007)	binding, affinity selection mass spectrometry	–	–	reference: other proteins in batch	fold enrichment	2.06
Nc1nc2c(ncn2[C@@H]2O[C@H](COP(=O)(O)OP(=O)(O)OP(=O)(O)O)[C@@H](O)[C@H]2O)c(=O)[nH]1	T1, RNA aptamer U10C/A45G, 5'-triphosphate, 2',3'-cyclic phosphate	ITC	–	–	–	Kd	0.361 µM
Cc1oc(C)c(S(=O)(=O)NCC(F)(F)c2ccc(Br)cc2)c1C(=O)O	malate dehydrogenase	enzyme activity, inhibitor	–	200 µM, pH 7.0, 1% DMSO, aggregation counter-screen	–	remaining activity	105%
Cc1cc(Oc2ncccc2CN2CCN(c3ccccc3C(F)(F)F)CC2)ccc1-c1c(C)c(=O)[nH]c(=O)n1C	ADRA2C	binding, radioligand binding	–	together with: [3H]rauwolscine	reference: Ki alpha2B over Ki alpha2C	selectivity ratio	6
O=c1nc(SCc2cc(F)cc(C(F)(F)F)c2)nc(SCc2ccc3sccc3c2)[nH]1	TOP2B	decatenation	–	125 µM, replicate 2	–	decatenated DNA	0%
COc1ccc(C)cc1CN1CCC(c2cc3ncccc3cn2)CC1	Catenin beta-1, residues 141-305 (CTNNB1, Homo sapiens, UniProt P35222)	ITC	–	25 °C	–	ΔS	21.6 cal/mol/K
